Measured values collected from several papers.
± marks the error that the study gave.

With `CCCCCCOP(=O)(O)Oc1c2c(c(OP(=O)(O)OCCCCCC)c3c1C1CC3c3cc4c(cc31)C1CC4c3ccccc31)C1CC2c2cc3c(cc21)C1CC3c2ccccc21` the IC50 was 7.4 µM (human respiratory syncytial virus; viral infection, GFP reporter, flow cytometry; A549; virus pretreated 30 min).
For `CC[C@H](C)[C@H](NC(=O)[C@H](CC(C)C)NC(=O)CNC(=O)[C@H](Cc1c[nH]cn1)NC(=O)[C@@H](NC(=O)[C@H](Cc1ccccc1)NC(=O)[C@H](CC(N)=O)NC(=O)[C@H](Cc1c[nH]c2ccccc12)NC(=O)[C@@H](NC(=O)[C@H](Cc1c[nH]cn1)NC(=O)CNC(=O)[C@H](Cc1c[nH]c2ccccc12)NC(=O)[C@@H](N)CC(C)C)[C@@H](C)CC)C(C)C)C(N)=O`, the IC50 was 8.63 µg/mL (Herpes simplex virus 1; viral entry, plaque reduction; Vero, F; 37 °C).
With `CC(=O)Nc1cc(Nc2cc(NC3CC3)n3ncc(C#N)c3n2)ccc1N(C)Cc1ccccc1` the IC50 was 6.31 µM (murine hepatitis virus; viral replication, nanoluciferase reporter; DBT; 10 h).
With `CC(=O)CCC1C(=O)NC(C(C)C)C(=O)NC(Cc2cccc(O)c2)C(=O)N2CCCC(N2)C(=O)OC(C(C)=CC=CC(=O)N2CCCCO2)CC=CC=CC(O)C(C)C1O` (centres unmarked) the IC50 was 0.28 µM (hepatitis B virus; viral replication, refers to: HBeAg; HBV stable cell line).
With `COc1ccc(C[C@H](NC(=O)[C@H](C)NC(=O)CN2CCOCC2)C(=O)N[C@@H](Cc2ccccc2)C(=O)C2(C)CO2)cc1` (stereo in doubt) the IC50 was 0.1 µM (Babesia divergens; parasite growth; bovine erythrocyte culture; 48 h, starting parasitemia 2%).
`CC(=O)Nc1cc(Nc2cc(NC3CC3)n3ncc(C#N)c3n2)ccc1N(C)CCN(C)C` has an IC50 of 0.002 µM (murine hepatitis virus; viral replication, nanoluciferase reporter; DBT; 10 h).
With `CC[C@H](C)[C@H](NC(=O)CNC(=O)[C@H](CC(C)C)NC(=O)CNC(=O)[C@H](CCCCN)NC(=O)[C@H](CCC(=O)O)NC(=O)[C@H](CCCCN)NC(=O)[C@@H](NC(=O)[C@H](Cc1ccccc1)NC(=O)[C@H](CC(=O)O)NC(=O)[C@H](CCCCN)NC(=O)[C@H](C)NC(=O)[C@H](CCCCN)NC(=O)[C@H](CC(N)=O)NC(=O)[C@H](CC(C)C)NC(=O)[C@H](Cc1c[nH]c2ccccc12)NC(=O)[C@H](CC(=O)O)NC(=O)[C@H](CCCCN)NC(=O)[C@@H](NC(=O)CNC(=O)[C@H](C)N)[C@@H](C)O)[C@@H](C)CC)C(=O)N[C@@H](CC(C)C)C(=O)N[C@@H](CO)C(=O)N[C@@H](C)C(=O)N[C@@H](C)C(=O)N[C@@H](C)C(=O)N[C@@H](CC(N)=O)C(=O)N[C@@H](C)C(=O)N[C@@H](C)C(=O)N[C@H](C(=O)N[C@@H](CC(N)=O)C(=O)O)[C@@H](C)CC` the IC50 was 31.6 ± 7.6 µM (Haemonchus contortus; larval development; Kirby isolate; 6 days, 26 °C).
The IC50 of `CC[C@H](C)[C@H](NC(=O)[C@H](CC(C)C)NC(=O)CNC(=O)[C@H](Cc1c[nH]cn1)NC(=O)[C@@H](NC(=O)[C@H](Cc1ccccc1)NC(=O)[C@H](CC(N)=O)NC(=O)[C@H](Cc1c[nH]c2ccccc12)NC(=O)[C@@H](NC(=O)[C@H](Cc1c[nH]cn1)NC(=O)[C@H](Cc1c[nH]cn1)NC(=O)[C@H](Cc1c[nH]c2ccccc12)NC(=O)[C@@H](N)CC(C)C)[C@@H](C)CC)C(C)C)C(N)=O` is reported as 0.86 µg/mL (Herpes simplex virus 1; viral attachment, plaque reduction; Vero, F; 1 h, 4 °C).

Some of these lines once more:
With `CC[C@H](C)[C@H](NC(=O)CNC(=O)[C@H](CC(C)C)NC(=O)CNC(=O)[C@H](CCCCN)NC(=O)[C@H](CCC(=O)O)NC(=O)[C@H](CCCCN)NC(=O)[C@@H](NC(=O)[C@H](Cc1ccccc1)NC(=O)[C@H](CC(=O)O)NC(=O)[C@H](CCCCN)NC(=O)[C@H](C)NC(=O)[C@H](CCCCN)NC(=O)[C@H](CC(N)=O)NC(=O)[C@H](CC(C)C)NC(=O)[C@H](Cc1c[nH]c2ccccc12)NC(=O)[C@H](CC(=O)O)NC(=O)[C@H](CCCCN)NC(=O)[C@@H](NC(=O)CNC(=O)[C@H](C)N)[C@@H](C)O)[C@@H](C)CC)C(=O)N[C@@H](CC(C)C)C(=O)N[C@@H](CO)C(=O)N[C@@H](C)C(=O)N[C@@H](C)C(=O)N[C@@H](C)C(=O)N[C@@H](CC(N)=O)C(=O)N[C@@H](C)C(=O)N[C@@H](C)C(=O)N[C@H](C(=O)N[C@@H](CC(N)=O)C(=O)O)[C@@H](C)CC` the IC50 was 31.6 ± 7.6 µM (Haemonchus contortus; larval development; Kirby isolate; 6 days, 26 °C).
